{"data": "Results gathered from unrelated publications", "note": "Each numbered part is a random draw from the data of one study; scales do not carry over between parts. Substitutions count along the parent as printed."}
{"data": "Study 1", "target": "ATF1, bZIP domain (human)", "method": "DHFR protein complementation", "matrix": "yeast", "setting": "single substitutions, most at no-binding floor", "reference": "wild-type JUN-FOS pair", "direction": "higher = stronger binding", "parent": "JUN, bZIP domain (human); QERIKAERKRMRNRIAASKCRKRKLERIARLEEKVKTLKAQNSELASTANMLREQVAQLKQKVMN; partner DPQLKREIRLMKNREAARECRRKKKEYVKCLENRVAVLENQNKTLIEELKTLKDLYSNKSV"}
{"Change": "A57P", "binding fitness": "-1.5 natural log"}
{"Change": "A29H", "binding fitness": "-1.39 natural log"}
{"Change": "A40W", "binding fitness": "-1.48 natural log"}
{"Change": "R30I", "binding fitness": "-1.43 natural log"}
{"Change": "N42S", "binding fitness": "-1.49 natural log"}
{"Change": "A46N", "binding fitness": "-1.39 natural log"}
{"Change": "M51L", "binding fitness": "-1.4 natural log"}
{"Change": "Q41A", "binding fitness": "-1.33 natural log"}
{"Change": "E32N", "binding fitness": "-1.52 natural log"}
{"Change": "S47N", "binding fitness": "-1.46 natural log"}
{"Change": "V35K", "binding fitness": "-1.45 natural log"}
{"Change": "K39L", "binding fitness": "-1.53 natural log"}
{"Change": "V56R", "binding fitness": "-1.51 natural log"}
{"Change": "E33G", "binding fitness": "-1.49 natural log"}
{"Change": "I28D", "binding fitness": "-1.45 natural log"}
{"Change": "S43F", "binding fitness": "-1.53 natural log"}
{"Change": "E54P", "binding fitness": "-1.54 natural log"}
{"Change": "L31F", "binding fitness": "-1.49 natural log"}
{"Change": "L52V", "binding fitness": "-1.54 natural log"}
{"Change": "A57E", "binding fitness": "-1.45 natural log"}
{"Change": "A49E", "binding fitness": "-1.44 natural log"}
{"Change": "T48L", "binding fitness": "-1.54 natural log"}
{"Change": "R53W", "binding fitness": "-1.54 natural log"}
{"data": "Study 2", "target": "OGT, full length, His-tagged (human)", "method": "phage display, sequencing", "matrix": "in vitro", "tested at": "1 µg OGT", "setting": "single substitutions, 15-mer displayed peptide, unchanged parent 5.27", "reference": "input library", "direction": "higher = stronger binding", "parent": "peptide; GDFPVMFMPKYSIIY"}
{"Change": "M8V", "fold enrichment [fold]": 1.34}
{"Change": "M8R", "fold enrichment [fold]": 1.34}
{"Change": "K10F", "fold enrichment [fold]": 4.95}
{"Change": "I13Q", "fold enrichment [fold]": 1.17}
{"Change": "P4G", "fold enrichment [fold]": 7.76}
{"Change": "Y15F", "fold enrichment [fold]": 5.08}
{"Change": "V5N", "fold enrichment [fold]": 7.64}
{"Change": "I13W", "fold enrichment [fold]": 1.41}
{"Change": "S12Y", "fold enrichment [fold]": 6.1}
{"Change": "K10N", "fold enrichment [fold]": 1.17}
{"Change": "F7R", "fold enrichment [fold]": 1.53}
{"Change": "M6H", "fold enrichment [fold]": 3.97}
{"Change": "M6K", "fold enrichment [fold]": 3.09}
{"Change": "F7W", "fold enrichment [fold]": 1.4}
{"Change": "I14T", "fold enrichment [fold]": 2.12}
{"Change": "I14R", "fold enrichment [fold]": 2.54}
{"Change": "V5L", "fold enrichment [fold]": 11.6}
{"Change": "F7I", "fold enrichment [fold]": 1.08}
{"Change": "S12D", "fold enrichment [fold]": 1.57}
{"Change": "D2S", "fold enrichment [fold]": 4.65}
{"data": "Study 3", "target": "ABI1, truncated, D143A, DHFR fusion (Arabidopsis thaliana)", "method": "DHFR PCA, deep sequencing", "matrix": "yeast", "setting": "methotrexate growth selection, single substitutions", "added": "(+)-ABA 1.4 µM", "reference": "wild-type fitted maximum", "direction": "higher = stronger binding", "parent": "PYL1, truncated, DHFR fusion (Arabidopsis thaliana); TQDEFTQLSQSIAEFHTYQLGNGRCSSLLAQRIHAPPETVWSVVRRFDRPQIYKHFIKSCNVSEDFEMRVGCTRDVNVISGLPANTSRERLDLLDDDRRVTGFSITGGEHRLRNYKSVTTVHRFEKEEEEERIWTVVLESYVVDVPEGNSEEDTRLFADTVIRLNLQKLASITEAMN; partner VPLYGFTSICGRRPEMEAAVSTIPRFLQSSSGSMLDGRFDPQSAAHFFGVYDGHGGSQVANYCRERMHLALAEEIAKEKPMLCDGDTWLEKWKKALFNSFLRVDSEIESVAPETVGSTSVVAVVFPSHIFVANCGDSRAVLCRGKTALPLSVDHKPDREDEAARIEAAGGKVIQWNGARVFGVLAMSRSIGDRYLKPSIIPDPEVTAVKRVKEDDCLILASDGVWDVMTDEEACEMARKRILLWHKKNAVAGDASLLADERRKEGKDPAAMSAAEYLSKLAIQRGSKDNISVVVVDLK"}
{"Change": "A170H", "relative binding score [%]": -4.87}
{"Change": "I52K", "relative binding score [%]": 23.9}
{"Change": "D159C", "relative binding score [%]": -16}
{"Change": "T6W", "relative binding score [%]": 47.1}
{"Change": "F124R", "relative binding score [%]": 7.39}
{"Change": "R111Y", "relative binding score [%]": 4.48}
{"Change": "D75Y", "relative binding score [%]": 53.5}
{"Change": "H55L", "relative binding score [%]": 66.3}
{"Change": "V136N", "relative binding score [%]": 4.31}
{"Change": "P37Q", "relative binding score [%]": 2.13}
{"Change": "L166I", "relative binding score [%]": 10.3}
{"Change": "T1L", "relative binding score [%]": 60.8}
{"Change": "C72V", "relative binding score [%]": 60.7}
{"Change": "Q2E", "relative binding score [%]": 75.4}
{"Change": "P50K", "relative binding score [%]": -2.1}
{"Change": "G23E", "relative binding score [%]": 21}
{"data": "Study 4", "target": "CCNE2, cyclin fold, Cln2 fusion (human)", "method": "yeast growth competition, sequencing", "matrix": "yeast", "setting": "strong parent motif", "reference": "not given", "direction": "higher = stronger binding", "parent": "BRCA2 docking peptide (human); PSIKRNLLNEFDR; partner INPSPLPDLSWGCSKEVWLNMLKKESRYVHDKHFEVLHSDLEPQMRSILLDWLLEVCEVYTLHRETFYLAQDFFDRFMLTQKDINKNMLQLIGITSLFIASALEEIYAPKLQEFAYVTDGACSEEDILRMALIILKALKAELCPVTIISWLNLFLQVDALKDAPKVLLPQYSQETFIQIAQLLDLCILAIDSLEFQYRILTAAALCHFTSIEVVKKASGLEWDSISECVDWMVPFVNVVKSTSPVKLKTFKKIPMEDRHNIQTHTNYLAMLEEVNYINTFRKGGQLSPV"}
{"Change": "PRIKRNLLNEFDR [S2R]", "normalised enrichment score": 1.39}
{"Change": "PSIKRNLLNETDR [F11T]", "normalised enrichment score": -0.224}
{"Change": "QSIKRNLLNEFDR [P1Q]", "normalised enrichment score": 2.01}
{"Change": "PSIKRNLQNEFDR [L8Q]", "normalised enrichment score": 0.54}
{"Change": "PQIKRNLLNEFDR [S2Q]", "normalised enrichment score": 1.68}
{"Change": "PSIKRNLLNEFWR [D12W]", "normalised enrichment score": 2}
{"Change": "PSDKRNLLNEFDR [I3D]", "normalised enrichment score": -0.49}
{"Change": "PSIKRNLGNEFDR [L8G]", "normalised enrichment score": 0.306}
{"Change": "PSIKRNLLNEFDG [R13G]", "normalised enrichment score": 1.44}
{"Change": "PSIKTNLLNEFDR [R5T]", "normalised enrichment score": -0.54}
{"Change": "PSFKRNLLNEFDR [I3F]", "normalised enrichment score": 2.62}
{"Change": "PSIARNLLNEFDR [K4A]", "normalised enrichment score": 0.398}
{"Change": "PSIPRNLLNEFDR [K4P]", "normalised enrichment score": 0.411}
{"Change": "PSIKRNLLNEVDR [F11V]", "normalised enrichment score": 1.43}
{"Change": "PYIKRNLLNEFDR [S2Y]", "normalised enrichment score": 0.934}
{"Change": "PGIKRNLLNEFDR [S2G]", "normalised enrichment score": 1.55}
{"Change": "PSIKMNLLNEFDR [R5M]", "normalised enrichment score": 0.786}
{"data": "Study 5", "target": "Ras GTPase-activating protein-binding protein 1, full length (G3BP1, Homo sapiens, UniProt Q13283)", "method": "RNA Bind-n-Seq", "form": "RNA", "matrix": "in vitro", "tested at": "200 nM", "setting": "whole 134-nt RNA, ends assumed", "added": "150 mM LiCl", "reference": "input library", "direction": "higher = stronger binding", "each molecule": "7-deaza-guanosine replaces G", "sequence of UniProt Q13283 (whole entry, looked up)": "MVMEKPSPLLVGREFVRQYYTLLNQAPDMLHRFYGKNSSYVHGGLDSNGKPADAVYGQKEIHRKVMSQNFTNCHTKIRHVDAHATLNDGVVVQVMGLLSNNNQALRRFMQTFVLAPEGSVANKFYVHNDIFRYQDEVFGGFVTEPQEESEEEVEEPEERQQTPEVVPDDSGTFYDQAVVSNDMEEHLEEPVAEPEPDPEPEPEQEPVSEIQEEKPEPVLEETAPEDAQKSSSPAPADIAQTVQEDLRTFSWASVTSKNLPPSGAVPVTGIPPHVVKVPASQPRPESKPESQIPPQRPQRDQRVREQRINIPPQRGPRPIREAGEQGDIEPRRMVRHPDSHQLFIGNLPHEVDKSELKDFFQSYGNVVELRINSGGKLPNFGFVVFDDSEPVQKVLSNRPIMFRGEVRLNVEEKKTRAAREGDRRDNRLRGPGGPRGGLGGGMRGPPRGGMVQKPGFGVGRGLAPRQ"}
{"Sequence": "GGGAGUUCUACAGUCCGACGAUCAAGUCCUGUGCUACACAUCGUAUGUACCGAAUCGGUUUUUUUGGUUUGGAAAAAGGAAAGUAUUAUGUUACGCCGUUCGGAUCUGCACUUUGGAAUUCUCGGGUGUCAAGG", "log2 enrichment": -1.77}
{"Sequence": "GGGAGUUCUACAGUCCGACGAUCUCCUGUGCUACACAUCGUAUGUACCGAAUCGGGGCCCCCCGGCCCCCCGGCCCCCCGGGGAAAGUAUUAUGUUACGCCGUUCGGAUCUGCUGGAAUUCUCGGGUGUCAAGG", "log2 enrichment": 0.726}
{"Sequence": "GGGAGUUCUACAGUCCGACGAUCACCAUGCAGGUGGGCAUCUUUGGGAAGUGGGGCAAGGGGGGGAUAGGCAGGGGGGUAACACUUUGGGAACAGGUGGUCCCAGGUCGUUUCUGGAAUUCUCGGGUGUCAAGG", "log2 enrichment": 0.236}
{"Sequence": "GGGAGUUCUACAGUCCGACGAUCUAACUUUAGAGGAGGAUCUGAUGGAUAUGGCAGUGGACGUGGAUUUGGGGAUGGCUAUAAUGGGUAUGGAGGAGGAACUGGAGGUGGCAAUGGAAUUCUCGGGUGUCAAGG", "log2 enrichment": 0.381}
{"Sequence": "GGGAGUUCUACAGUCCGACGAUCUCCUGUGCUACACAUCGUAUGUACCGAAUCGGAAAAAAGGGGAAAAAAGGAAAAAAGGGAAAGUAUUAUGUUACGCCGUUCGGAUCUGCAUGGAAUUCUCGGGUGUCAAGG", "log2 enrichment": -0.136}
{"Sequence": "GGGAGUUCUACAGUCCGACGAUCUCCUCAAGUCCUGUGCUACACAUCGUAUGUACCGAAUCGGUGGUUUGGAGGAAAGUAUUAUGUUACGCCGUUCGGAUCUGCACUUCCAGCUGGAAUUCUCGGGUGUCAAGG", "log2 enrichment": -0.0212}
{"Sequence": "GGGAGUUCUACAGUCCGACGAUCUCCUCAAGUCCUGUGCUACACAUCGUAUGUACCGAAUCGGGAGGAGGAGGGGAAAGUAUUAUGUUACGCCGUUCGGAUCUGCACUUCCAGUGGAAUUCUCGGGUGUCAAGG", "log2 enrichment": 0.205}
{"Sequence": "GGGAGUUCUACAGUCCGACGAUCGUCCUGUGCUACACAUCGUAUGUACCGAAUCGGGGUUUGGGGUUUGGGGUUUUUGGGGAAAGUAUUAUGUUACGCCGUUCGGAUCUGCACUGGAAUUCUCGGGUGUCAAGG", "log2 enrichment": -0.45}
{"Sequence": "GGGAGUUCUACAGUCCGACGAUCAAGUCCUGUGCUACACAUCGUAUGUACCGAAUCGGAAAAAGGAAAGGUUUUUUUGGAAAGUAUUAUGUUACGCCGUUCGGAUCUGCACUUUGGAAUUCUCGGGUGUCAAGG", "log2 enrichment": -1.76}
{"Sequence": "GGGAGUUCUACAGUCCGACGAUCAAGUCCUGUGCUACACAUCGUAUGUACCGAAUCGGGCCCCGGCCCCGGGGCCCCGGAAAGUAUUAUGUUACGCCGUUCGGAUCUGCACUUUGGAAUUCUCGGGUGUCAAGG", "log2 enrichment": -2.65}
{"Sequence": "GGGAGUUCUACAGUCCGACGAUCUCCUGUGCUACACAUCGUAUGUACCGAAUCGGGAAAAAGGGUUUUUUUGGGAAAAAGGGAAAGUAUUAUGUUACGCCGUUCGGAUCUGCAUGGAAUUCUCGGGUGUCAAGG", "log2 enrichment": -1.14}
